{"data": "Measured values of several laboratories", "note": "Parts stem from different laboratories: compare values within a part only. “And” joins repeats or separate records; there may be more than shown.", "sequence of UniProt P05164 (whole entry, looked up)": "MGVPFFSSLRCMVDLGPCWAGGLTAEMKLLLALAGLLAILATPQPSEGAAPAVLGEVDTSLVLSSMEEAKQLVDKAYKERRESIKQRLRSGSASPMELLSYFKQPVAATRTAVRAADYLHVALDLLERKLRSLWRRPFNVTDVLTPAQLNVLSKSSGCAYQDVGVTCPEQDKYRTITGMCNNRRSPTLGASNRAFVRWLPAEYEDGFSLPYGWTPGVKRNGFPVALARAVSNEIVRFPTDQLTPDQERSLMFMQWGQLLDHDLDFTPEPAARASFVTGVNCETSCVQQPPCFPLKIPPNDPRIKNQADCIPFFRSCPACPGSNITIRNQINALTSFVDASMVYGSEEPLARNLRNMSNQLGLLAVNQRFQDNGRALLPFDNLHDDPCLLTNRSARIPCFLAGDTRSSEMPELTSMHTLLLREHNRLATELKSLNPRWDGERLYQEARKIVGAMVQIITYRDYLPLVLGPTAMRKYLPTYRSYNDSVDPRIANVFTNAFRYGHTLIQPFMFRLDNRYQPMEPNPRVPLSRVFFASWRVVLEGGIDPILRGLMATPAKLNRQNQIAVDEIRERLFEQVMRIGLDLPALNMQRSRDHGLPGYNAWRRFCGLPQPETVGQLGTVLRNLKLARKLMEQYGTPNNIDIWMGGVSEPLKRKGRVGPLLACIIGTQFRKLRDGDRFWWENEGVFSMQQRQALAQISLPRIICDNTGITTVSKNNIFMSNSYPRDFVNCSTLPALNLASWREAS", "sequence of UniProt P50750 (whole entry, looked up)": "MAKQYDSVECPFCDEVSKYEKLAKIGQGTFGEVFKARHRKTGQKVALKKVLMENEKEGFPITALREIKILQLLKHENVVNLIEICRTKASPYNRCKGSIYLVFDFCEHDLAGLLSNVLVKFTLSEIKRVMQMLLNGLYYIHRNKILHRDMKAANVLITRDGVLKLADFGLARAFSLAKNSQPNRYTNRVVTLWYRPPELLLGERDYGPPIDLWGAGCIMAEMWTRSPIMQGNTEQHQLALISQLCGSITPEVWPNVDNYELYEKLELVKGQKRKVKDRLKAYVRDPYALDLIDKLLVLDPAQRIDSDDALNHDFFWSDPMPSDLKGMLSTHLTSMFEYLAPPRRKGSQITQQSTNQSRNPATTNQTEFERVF", "sequence of UniProt P19801 (whole entry, looked up)": "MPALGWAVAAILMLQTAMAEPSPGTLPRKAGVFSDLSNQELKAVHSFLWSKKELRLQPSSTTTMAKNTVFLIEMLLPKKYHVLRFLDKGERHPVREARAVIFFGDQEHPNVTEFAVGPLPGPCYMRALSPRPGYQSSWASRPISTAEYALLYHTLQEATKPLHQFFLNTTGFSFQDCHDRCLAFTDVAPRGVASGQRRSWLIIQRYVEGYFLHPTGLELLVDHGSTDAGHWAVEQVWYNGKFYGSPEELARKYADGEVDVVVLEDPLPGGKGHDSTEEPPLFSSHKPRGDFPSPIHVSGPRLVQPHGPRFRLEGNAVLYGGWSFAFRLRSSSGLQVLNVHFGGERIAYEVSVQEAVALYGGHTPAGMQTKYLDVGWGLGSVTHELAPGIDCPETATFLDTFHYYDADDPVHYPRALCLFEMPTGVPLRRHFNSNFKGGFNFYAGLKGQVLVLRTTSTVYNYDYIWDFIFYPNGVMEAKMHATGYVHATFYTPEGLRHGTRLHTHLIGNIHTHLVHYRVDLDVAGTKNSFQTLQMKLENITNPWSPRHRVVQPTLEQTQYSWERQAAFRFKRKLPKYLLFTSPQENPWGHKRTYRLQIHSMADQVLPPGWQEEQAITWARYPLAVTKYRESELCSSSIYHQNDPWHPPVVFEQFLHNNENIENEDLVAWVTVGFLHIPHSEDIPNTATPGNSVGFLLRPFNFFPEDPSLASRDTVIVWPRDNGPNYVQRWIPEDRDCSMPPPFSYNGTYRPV"}
{"data": "Block 1", "SMILES": "CCN(CC)CC(=O)N1CCN(c2nc(NCc3nc4cc(Cl)c(Cl)cc4[nH]3)c3ncn(CC)c3n2)CC1", "read-out": "enzyme activity", "action": "inhibitor", "technique": "ADP detection", "CDK7": "Cyclin-dependent kinase 7 (CDK7, Homo sapiens, UniProt P50613)", "CDK13": "Cyclin-dependent kinase 13 (CDK13, Homo sapiens, UniProt Q14004)", "sequence of UniProt P50613 (whole entry, looked up)": "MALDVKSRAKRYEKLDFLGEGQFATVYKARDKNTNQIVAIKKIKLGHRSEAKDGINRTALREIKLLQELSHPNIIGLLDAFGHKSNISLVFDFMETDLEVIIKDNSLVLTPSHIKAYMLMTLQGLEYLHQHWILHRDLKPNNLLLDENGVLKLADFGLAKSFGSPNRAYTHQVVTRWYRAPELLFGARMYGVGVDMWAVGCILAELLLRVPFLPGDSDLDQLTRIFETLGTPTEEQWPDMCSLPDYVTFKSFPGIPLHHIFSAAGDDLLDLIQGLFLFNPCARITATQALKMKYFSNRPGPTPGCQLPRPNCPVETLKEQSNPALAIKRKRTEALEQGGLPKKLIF", "sequence of UniProt Q14004 (whole entry, looked up)": "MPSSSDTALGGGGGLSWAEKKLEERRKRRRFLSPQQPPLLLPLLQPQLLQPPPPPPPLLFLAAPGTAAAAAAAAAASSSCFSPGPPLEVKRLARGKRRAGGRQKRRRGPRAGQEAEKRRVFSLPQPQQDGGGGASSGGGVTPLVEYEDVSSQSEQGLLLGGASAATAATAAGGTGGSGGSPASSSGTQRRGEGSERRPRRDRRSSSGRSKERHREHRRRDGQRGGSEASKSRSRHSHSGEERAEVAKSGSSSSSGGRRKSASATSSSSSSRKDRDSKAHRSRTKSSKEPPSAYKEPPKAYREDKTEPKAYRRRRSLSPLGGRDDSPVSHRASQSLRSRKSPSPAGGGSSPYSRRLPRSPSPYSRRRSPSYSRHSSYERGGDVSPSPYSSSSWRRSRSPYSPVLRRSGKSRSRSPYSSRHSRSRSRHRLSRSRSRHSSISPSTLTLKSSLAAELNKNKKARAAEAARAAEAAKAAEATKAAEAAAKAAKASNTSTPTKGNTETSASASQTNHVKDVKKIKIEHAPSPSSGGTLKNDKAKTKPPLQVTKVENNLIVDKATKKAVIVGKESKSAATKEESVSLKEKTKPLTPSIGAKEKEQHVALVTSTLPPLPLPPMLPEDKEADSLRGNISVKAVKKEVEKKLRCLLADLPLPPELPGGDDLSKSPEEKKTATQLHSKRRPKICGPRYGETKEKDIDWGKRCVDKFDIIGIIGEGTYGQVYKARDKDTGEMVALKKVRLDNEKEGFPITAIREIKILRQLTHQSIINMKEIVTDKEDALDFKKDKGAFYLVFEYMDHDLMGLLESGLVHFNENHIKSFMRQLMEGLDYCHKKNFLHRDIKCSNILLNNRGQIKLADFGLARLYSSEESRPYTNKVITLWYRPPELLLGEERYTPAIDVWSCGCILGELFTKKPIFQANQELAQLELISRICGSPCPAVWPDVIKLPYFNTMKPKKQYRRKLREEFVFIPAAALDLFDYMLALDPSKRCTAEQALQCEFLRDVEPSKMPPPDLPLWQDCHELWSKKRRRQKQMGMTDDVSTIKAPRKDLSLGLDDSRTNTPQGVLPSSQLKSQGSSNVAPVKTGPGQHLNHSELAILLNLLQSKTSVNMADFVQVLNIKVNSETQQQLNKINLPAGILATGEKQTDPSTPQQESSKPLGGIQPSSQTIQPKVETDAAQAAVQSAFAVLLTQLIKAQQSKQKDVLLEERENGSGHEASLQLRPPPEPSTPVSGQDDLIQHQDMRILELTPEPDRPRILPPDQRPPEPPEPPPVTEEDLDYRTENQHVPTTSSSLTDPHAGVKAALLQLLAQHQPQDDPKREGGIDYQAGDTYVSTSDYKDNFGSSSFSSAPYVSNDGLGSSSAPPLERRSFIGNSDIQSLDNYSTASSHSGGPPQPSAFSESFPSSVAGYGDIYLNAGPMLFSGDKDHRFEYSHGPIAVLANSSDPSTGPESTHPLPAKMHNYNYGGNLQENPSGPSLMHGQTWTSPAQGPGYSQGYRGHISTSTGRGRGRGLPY"}
{"target": "CDK7", "setting": "500 pM", "inhibition [%]": 3.2}
{"target": "CDK7", "setting": "3.333 µM", "inhibition [%]": 64.5}
{"target": "CDK7", "setting": "4.6 nM", "inhibition [%]": 18.8}
{"target": "Cyclin-dependent kinase 2 (CDK2, Homo sapiens, UniProt P24941)", "setting": "4.6 nM", "inhibition [%]": -4.6}
{"target": "CDK13", "setting": "3.333 µM", "inhibition [%]": 83}
{"target": "CDK7", "setting": "13.7 nM", "inhibition [%]": 12.6}
{"target": "CDK13", "setting": "500 pM", "inhibition [%]": -7.8}
{"target": "Cyclin-dependent kinase 9 (CDK9, Homo sapiens, UniProt P50750)", "setting": "0.3704 µM", "inhibition [%]": 11.7}
{"data": "Block 2", "Structure (SMILES)": "CCN1/C(=C/C=C2\\CCCC(/C=C/C3=[N+](CC)c4ccccc4C3(C)C)=C2NCCCCCCCCN2CCC(Nc3nc4ccccc4n3Cc3ccc(F)cc3)CC2)C(C)(C)c2ccccc21", "cell line": "U-87 MG", "tested at": "concentration not given", "reference": "DMSO"}
{"assay": "refers to: TCTN2 mRNA", "log2 fold change": -1.28}
{"assay": "refers to: TJP2 mRNA", "log2 fold change": -1.15}
{"assay": "refers to: TAGLN2 mRNA", "log2 fold change": -1.09}
{"assay": "refers to: PPP3CC mRNA", "log2 fold change": 0.807}
{"assay": "refers to: WDR54 mRNA", "log2 fold change": -0.833}
{"assay": "refers to: NCAPH mRNA", "log2 fold change": -1.61}
{"assay": "refers to: CCDC40 mRNA", "log2 fold change": 1.43}
{"assay": "refers to: SELENOS mRNA", "log2 fold change": 1.09}
{"assay": "refers to: CNTRL mRNA", "log2 fold change": -1.59}
{"assay": "refers to: RPS6KA4 mRNA", "log2 fold change": -0.952}
{"assay": "refers to: GEMIN4 mRNA", "log2 fold change": -0.846}
{"assay": "refers to: PIF1 mRNA", "log2 fold change": -2.44}
{"assay": "refers to: ACTB mRNA", "log2 fold change": -1.63}
{"assay": "refers to: EXOC3L1 mRNA", "log2 fold change": -3.94}
{"assay": "refers to: DDX3Y mRNA", "log2 fold change": 1.68}
{"assay": "refers to: DPF3 mRNA", "log2 fold change": -1.75}
{"data": "Block 3", "target": "Sodium-dependent neutral amino acid transporter B(0)AT1 (SLC6A19, Homo sapiens, UniProt Q695T7)", "technique": "FLIPR membrane potential", "cells": "CHO-BC", "tested at": "30 µM", "setting": "unit not given", "reference": "uninhibited", "sequence of UniProt Q695T7 (whole entry, looked up)": "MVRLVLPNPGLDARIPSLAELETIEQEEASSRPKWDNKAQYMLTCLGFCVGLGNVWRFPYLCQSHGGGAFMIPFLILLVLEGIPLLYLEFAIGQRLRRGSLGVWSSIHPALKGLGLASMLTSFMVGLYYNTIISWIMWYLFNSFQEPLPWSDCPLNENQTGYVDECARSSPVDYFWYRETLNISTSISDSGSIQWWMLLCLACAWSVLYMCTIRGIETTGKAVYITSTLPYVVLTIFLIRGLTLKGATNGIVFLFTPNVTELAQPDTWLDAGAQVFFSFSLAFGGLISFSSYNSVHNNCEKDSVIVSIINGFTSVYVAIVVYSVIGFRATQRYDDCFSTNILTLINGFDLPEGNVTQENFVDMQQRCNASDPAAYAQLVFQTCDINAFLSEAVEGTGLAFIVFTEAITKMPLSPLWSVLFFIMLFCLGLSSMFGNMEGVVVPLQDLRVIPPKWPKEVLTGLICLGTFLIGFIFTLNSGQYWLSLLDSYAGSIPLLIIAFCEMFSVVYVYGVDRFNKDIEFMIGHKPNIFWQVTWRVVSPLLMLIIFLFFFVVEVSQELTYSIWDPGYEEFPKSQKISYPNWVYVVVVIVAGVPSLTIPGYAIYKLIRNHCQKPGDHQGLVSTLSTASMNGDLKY"}
{"SMILES": "Cc1cc(OCC(=O)NC(C)C)cc(C)c1Br", "remaining activity": "0.297 and 0.293 and 0.19 and 0.161 and 0.248"}
{"SMILES": "CCNC(=O)COc1cc(C)c(Cl)c(C)c1", "remaining activity": "0.518 and 0.413 and 0.431 and 0.486"}
{"SMILES": "Cc1cc(OCC(=O)NC(C)C)cc(C)c1I", "remaining activity": "0.247 and 0.211 and 0.174 and 0.126 and 0.151"}
{"data": "Block 4", "Structure (SMILES)": "Cc1ncsc1-c1ccc(C(CO)NC(=O)C2CC(O)CN2C(=O)C(C(C)C)n2cc(-c3ccc(COc4c(-c5c(C)c(F)cc6[nH]ncc56)c(C5CC5)cc5c(N6CC7CC6CN7)nc(OC6CCOCC6)nc45)cc3)nn2)cc1 (centres unmarked)", "read-out": "cell growth or viability", "technique": "ATP luminescence", "time": "6 days"}
{"cell line": "BXPC-3", "setting": "3 µM", "viability": "86.2% and 86% and 120% and 76%"}
{"cell line": "A-375", "setting": "0.1 µM", "viability": "88.9% and 80.2% and 91.8% and 88.1%"}
{"cell line": "PK-59", "setting": "3 nM", "viability": "84.7% and 77.4% and 86.3% and 85.6%"}
{"data": "Block 5", "Structure (SMILES)": "C[C@@H]1CN(c2ccc(-c3cc(C(=O)NCCOCCOCCOCCOCCOCCOCCNC(=O)/C=C/c4[nH]cc(C(=O)N[C@@H](CC(N)=O)c5ccc(F)c(Cl)c5)c4-c4ccc(Cl)cc4F)ccc3F)cc2NC(=O)c2ccc(F)cc2C(F)(F)F)C[C@H](C)N1C", "read-out": "thermal unfolding", "technique": "differential scanning fluorimetry", "tested at": "5.5 µM", "reading": "higher = more unfolded", "DCAF1": "DDB1- and CUL4-associated factor 1 (DCAF1, Homo sapiens, UniProt Q9Y4B6)", "WDR5": "WD repeat-containing protein 5 (WDR5, Homo sapiens, UniProt P61964)"}
{"target": "DCAF1", "setting": "55.21 °C", "SYPRO Orange fluorescence [a.u.]": 27600}
{"target": "WDR5", "setting": "78.61 °C", "SYPRO Orange fluorescence [a.u.]": 61900}
{"target": "WDR5", "setting": "25.4 °C", "SYPRO Orange fluorescence [a.u.]": 13200}
{"target": "WDR5", "setting": "73.61 °C", "SYPRO Orange fluorescence [a.u.]": 42600}
{"target": "DCAF1", "setting": "57.61 °C", "SYPRO Orange fluorescence [a.u.]": 36800}
{"target": "WDR5", "setting": "27.8 °C", "SYPRO Orange fluorescence [a.u.]": 13500}
{"data": "Further values, each from its own experiment", "PKMYT1": "Membrane-associated tyrosine- and threonine-specific cdc2-inhibitory kinase (PKMYT1, Homo sapiens, UniProt Q99640)", "sequence of UniProt Q99640 (whole entry, looked up)": "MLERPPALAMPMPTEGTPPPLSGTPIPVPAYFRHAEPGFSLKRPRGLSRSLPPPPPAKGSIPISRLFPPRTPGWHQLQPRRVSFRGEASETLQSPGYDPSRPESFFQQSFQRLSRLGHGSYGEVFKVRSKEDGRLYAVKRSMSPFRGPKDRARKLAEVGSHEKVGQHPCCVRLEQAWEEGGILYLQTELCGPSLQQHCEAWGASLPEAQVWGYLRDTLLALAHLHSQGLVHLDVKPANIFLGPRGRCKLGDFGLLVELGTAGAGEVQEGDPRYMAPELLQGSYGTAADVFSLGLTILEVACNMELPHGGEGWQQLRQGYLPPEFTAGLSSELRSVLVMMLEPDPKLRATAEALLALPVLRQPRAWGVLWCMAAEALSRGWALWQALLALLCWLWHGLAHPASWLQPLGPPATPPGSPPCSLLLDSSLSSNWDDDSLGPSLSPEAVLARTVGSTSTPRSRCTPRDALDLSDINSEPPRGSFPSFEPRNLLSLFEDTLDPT"}
{"Compound": "Cc1ccnc(C)c1-c1cnc2[nH]c(-c3ccc(N4CCN(C)CC4)nc3C)nc2c1", "target or system": "PKMYT1", "assay": "binding, HTRF", "setting": "1.52 nM", "quantity": "inhibition", "value": "-15.1% and -17.2%"}
{"Compound": "CS(=O)(=O)c1ccc(OC/C(=C/F)CN)cc1", "target or system": "Diamine oxidase [copper-containing] (AOC1, Homo sapiens, UniProt P19801)", "assay": "enzyme activity, inhibitor", "quantity": "IC50", "value": "> 30 µM"}
{"Compound": "Cc1ccc(O)c(C)c1-c1cnc2[nH]c(-c3cnc(N4CCC(CN5CCN(c6ccc7c(c6)C(=O)N(C6CCC(=O)NC6=O)C7=O)CC5)CC4)nc3)cc2c1C#N (centres unmarked)", "test system": "CD-1 mouse, female, fasted, plasma", "setting": "oral, 10 mg/kg", "quantity": "AUC(0-24h)", "value": "1.09 µg·h/mL"}
{"Compound": "CC[C@@]1(c2cccc(C(F)(F)F)c2)C2=C(Nc3n[nH]cc31)[C@H](F)C(C)(C)CC2=O (single isomer, unassigned)", "test system": "rat plasma", "setting": "4 h", "quantity": "fu", "value": 0.0312}
{"Compound": "Cc1ncc(-c2cc3c(C#N)c(-c4c(C)ccc(O)c4C)cnc3[nH]2)cn1", "target or system": "PKMYT1", "setting": "10 µM", "quantity": "inhibition", "value": "104%"}
{"Compound": "Cc1nc(C)c(C=[N+]([O-])C(C)(C)C)nc1C", "assay": "immunofluorescence, refers to: 3-nitrotyrosine", "test system": "mouse, MPTP model, substantia nigra", "setting": "30 mg/kg", "scale": "reference: sham mice", "quantity": "fluorescence intensity", "value": "215%"}
{"Compound": "NC/C(=C\\F)COc1cc(Cn2c(=S)[nH]c(=O)c3[nH]ccc32)ccc1Cl", "target or system": "Myeloperoxidase (MPO, Homo sapiens, UniProt P05164)", "assay": "enzyme activity", "setting": "0.0046 µM", "quantity": "inhibition", "value": "27.3% and 33.7%"}
{"Compound": "Cc1ccc(O)c(C)c1-c1cnc2[nH]c(-c3cnc(N)nc3)cc2c1C#N", "test system": "male Sprague-Dawley rat, plasma", "setting": "intravenous", "quantity": "clearance", "value": "1.06 L/h/kg"}
{"note": "Repeated from above (block 2):"}
{"assay": "refers to: TJP2 mRNA", "log2 fold change": -1.15}
{"assay": "refers to: TAGLN2 mRNA", "log2 fold change": -1.09}
{"assay": "refers to: PPP3CC mRNA", "log2 fold change": 0.807}
{"assay": "refers to: WDR54 mRNA", "log2 fold change": -0.833}
{"assay": "refers to: NCAPH mRNA", "log2 fold change": -1.61}
